# Published values gathered from unrelated publications.
# Numbered parts are unrelated; each lists some results of a single study.
# Chain of UniProt P36897 (whole entry, looked up): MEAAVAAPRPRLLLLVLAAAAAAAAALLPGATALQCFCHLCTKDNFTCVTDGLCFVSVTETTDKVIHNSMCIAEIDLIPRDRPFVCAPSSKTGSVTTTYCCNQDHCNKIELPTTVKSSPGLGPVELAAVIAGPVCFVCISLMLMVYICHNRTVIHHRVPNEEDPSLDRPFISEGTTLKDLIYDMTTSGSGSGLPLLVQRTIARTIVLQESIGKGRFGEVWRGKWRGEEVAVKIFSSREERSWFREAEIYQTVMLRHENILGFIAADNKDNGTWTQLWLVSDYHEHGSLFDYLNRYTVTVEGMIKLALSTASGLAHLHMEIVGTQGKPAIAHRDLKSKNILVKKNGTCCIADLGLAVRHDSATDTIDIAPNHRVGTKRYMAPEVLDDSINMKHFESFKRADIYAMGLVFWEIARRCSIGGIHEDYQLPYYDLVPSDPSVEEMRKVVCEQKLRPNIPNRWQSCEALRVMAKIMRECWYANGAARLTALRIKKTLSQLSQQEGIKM
# Chain of UniProt P62344 (whole entry, looked up): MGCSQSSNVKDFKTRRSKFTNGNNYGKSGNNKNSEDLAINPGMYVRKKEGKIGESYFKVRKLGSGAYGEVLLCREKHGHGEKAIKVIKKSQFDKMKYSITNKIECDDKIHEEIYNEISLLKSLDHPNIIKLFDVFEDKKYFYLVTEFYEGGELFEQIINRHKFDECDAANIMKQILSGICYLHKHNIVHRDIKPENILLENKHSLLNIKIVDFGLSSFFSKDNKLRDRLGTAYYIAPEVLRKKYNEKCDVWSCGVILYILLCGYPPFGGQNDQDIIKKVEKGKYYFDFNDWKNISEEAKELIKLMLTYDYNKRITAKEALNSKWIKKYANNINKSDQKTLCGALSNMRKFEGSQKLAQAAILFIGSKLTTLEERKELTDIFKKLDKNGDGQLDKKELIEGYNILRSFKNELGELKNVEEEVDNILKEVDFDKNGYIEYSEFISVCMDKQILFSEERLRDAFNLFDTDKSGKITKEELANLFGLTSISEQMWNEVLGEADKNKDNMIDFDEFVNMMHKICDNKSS
# Chain of UniProt P35626 (whole entry, looked up): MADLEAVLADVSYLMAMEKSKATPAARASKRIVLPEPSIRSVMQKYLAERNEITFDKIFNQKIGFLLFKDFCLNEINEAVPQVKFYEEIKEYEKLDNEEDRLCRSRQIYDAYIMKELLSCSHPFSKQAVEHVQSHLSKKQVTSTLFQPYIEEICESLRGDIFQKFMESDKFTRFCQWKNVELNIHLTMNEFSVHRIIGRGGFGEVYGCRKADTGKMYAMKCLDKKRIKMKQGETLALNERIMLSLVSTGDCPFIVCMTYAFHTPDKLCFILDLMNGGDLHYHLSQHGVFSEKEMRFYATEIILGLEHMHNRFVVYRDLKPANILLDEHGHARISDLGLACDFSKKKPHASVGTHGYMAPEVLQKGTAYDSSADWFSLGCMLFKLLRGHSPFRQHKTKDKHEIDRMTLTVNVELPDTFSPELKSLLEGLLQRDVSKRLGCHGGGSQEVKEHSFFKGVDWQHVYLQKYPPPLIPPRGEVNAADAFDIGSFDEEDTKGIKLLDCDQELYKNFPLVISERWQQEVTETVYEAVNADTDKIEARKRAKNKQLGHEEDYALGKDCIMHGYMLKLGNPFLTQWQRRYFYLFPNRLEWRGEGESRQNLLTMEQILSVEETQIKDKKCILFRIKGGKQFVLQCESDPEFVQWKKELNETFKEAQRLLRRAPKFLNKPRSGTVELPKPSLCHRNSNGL
# Chain of UniProt P11802 (whole entry, looked up): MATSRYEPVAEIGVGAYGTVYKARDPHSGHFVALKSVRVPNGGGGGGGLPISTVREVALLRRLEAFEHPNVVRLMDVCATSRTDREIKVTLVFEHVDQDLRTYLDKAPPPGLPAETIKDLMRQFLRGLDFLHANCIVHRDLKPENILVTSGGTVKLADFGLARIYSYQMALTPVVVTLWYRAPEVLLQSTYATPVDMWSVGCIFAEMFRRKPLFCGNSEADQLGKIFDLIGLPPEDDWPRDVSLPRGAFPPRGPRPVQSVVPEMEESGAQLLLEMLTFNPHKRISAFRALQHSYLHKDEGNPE
# Chain of UniProt Q00535 (whole entry, looked up): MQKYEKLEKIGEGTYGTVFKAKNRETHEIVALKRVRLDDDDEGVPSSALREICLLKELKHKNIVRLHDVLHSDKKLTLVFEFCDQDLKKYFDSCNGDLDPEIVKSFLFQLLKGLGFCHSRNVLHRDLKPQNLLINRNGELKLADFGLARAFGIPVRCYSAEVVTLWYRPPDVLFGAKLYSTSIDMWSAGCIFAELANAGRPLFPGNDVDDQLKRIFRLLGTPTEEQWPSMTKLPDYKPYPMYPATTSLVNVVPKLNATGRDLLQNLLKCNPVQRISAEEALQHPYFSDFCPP
# Chain of UniProt Q9UIK4 (whole entry, looked up): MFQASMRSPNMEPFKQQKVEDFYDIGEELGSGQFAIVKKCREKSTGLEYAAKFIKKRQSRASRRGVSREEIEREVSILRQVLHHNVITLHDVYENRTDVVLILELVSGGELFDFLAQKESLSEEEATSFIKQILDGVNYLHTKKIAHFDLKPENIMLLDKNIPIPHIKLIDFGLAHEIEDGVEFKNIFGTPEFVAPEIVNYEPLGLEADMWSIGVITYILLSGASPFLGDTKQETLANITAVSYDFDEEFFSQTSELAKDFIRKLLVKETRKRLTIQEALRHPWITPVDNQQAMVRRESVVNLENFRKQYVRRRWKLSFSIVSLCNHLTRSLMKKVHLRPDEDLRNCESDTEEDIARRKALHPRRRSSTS
# Chain of UniProt P61075 (whole entry, looked up): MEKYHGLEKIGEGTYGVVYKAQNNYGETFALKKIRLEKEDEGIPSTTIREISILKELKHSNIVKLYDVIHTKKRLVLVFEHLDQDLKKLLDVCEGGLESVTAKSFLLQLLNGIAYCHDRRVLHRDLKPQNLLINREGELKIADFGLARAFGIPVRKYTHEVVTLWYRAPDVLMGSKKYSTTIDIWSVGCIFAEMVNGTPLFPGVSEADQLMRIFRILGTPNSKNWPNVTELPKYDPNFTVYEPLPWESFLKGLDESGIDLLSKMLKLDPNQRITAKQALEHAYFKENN
# Chain of UniProt P28223 (whole entry, looked up): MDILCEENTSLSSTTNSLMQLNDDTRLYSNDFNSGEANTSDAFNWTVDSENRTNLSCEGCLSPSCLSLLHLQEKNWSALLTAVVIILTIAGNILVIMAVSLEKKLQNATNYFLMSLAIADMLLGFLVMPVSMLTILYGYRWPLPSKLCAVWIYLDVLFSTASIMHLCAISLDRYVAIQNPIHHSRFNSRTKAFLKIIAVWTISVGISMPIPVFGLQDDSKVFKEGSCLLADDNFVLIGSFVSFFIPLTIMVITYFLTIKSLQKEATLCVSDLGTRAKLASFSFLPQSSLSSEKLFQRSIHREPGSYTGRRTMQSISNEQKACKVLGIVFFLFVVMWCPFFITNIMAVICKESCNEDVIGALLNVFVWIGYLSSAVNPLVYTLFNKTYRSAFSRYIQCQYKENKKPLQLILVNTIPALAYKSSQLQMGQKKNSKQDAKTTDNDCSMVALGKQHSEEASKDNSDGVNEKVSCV
# Chain of UniProt Q15831 (whole entry, looked up): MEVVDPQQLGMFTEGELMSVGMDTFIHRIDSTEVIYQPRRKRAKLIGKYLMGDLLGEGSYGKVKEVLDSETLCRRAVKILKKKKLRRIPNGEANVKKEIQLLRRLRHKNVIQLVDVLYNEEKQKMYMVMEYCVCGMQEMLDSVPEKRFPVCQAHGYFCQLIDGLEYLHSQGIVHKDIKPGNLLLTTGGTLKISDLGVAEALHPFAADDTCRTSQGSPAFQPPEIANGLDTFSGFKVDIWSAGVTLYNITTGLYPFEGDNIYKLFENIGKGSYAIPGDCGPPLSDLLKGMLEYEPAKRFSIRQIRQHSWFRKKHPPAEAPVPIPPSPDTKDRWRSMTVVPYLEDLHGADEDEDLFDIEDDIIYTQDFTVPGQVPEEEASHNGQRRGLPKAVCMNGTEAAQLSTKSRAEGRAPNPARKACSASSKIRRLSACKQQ
# Chain of UniProt P29376 (whole entry, looked up): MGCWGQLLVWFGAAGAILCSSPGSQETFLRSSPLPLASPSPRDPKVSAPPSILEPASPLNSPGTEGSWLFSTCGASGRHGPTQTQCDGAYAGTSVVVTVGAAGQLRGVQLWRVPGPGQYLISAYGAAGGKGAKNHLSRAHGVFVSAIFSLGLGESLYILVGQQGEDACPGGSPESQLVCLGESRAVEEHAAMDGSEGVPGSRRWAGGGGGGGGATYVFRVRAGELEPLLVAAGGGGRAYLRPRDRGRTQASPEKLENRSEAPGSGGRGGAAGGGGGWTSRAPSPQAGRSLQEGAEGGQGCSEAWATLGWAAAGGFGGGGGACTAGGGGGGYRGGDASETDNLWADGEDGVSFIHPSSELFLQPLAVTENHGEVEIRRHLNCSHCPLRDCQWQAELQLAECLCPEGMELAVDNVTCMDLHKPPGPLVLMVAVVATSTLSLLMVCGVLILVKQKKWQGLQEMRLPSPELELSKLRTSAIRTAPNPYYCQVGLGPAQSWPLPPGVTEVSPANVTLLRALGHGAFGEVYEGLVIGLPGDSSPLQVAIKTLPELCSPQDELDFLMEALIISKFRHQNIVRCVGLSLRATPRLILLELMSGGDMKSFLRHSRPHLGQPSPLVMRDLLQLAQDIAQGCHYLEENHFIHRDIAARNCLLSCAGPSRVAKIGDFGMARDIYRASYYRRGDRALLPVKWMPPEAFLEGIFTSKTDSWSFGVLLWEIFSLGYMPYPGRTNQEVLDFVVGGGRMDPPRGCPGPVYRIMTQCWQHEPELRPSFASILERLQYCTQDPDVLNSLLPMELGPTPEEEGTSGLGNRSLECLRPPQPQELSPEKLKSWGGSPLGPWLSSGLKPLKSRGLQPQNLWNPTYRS

# Sample 1
# Cell line: HEK-293T
# Observed: pseudovirus infection
# Method: FDA-approved drug library counter-screen
# Organism: VSV pseudotyped with VSV-G
# Concentration: 10 µM
# Time: 16 h
# Relative to: vehicle-treated
SMILES,GFP-positive cells [%]
C[C@H](N)[C@H](O)c1cccc(O)c1,93
N=C1CCCN1Cc1nc(O)nc(O)c1Cl,118
CN(C)CCCN1c2ccccc2Sc2ccccc21,111
NS(=O)(=O)Cc1noc2ccccc12,86
N[C@@H](Cc1ccc(O)c(O)c1)C(=O)O,84
COc1cnc(NS(=O)(=O)c2ccc(N)cc2)nc1,88.9
CN1CC(=O)N2[C@H](c3ccc4c(c3)OCO4)c3[nH]c4ccccc4c3C[C@@H]2C1=O,94.9
CC(=O)Nc1ccc(O)cc1,123
CCN(CC)CCCC(C)Nc1ccnc2cc(Cl)ccc12 (centres unmarked),104
Cc1cccc(C)c1NC(=O)C1CCCCN1C (centres unmarked),88.6
Cc1ccc(C(=O)c2cc(O)c(O)c([N+](=O)[O-])c2)cc1,98.3
Cc1ccc(C)c(OCCCC(C)(C)C(=O)O)c1,104
C[C@H]1C[C@H]2[C@@H]3CCC4=CC(=O)C=C[C@]4(C)[C@@]3(F)[C@@H](O)C[C@]2(C)[C@@]1(O)C(=O)CO,129
CC(=O)O[C@]1(C(C)=O)CC[C@H]2[C@@H]3C=C(C)C4=CC(=O)CC[C@]4(C)[C@H]3CC[C@@]21C,120
CCCNC(=O)NS(=O)(=O)c1ccc(Cl)cc1,74.9
CCN(CC)C(=O)[C@@]1(c2ccccc2)C[C@H]1CN,94.9
COC(=O)C1=C(C)NC(C)=C(C(=O)OCC(C)C)C1c1ccccc1[N+](=O)[O-] (centres unmarked),68.3
CCN(CC)C(=O)N1CCN(C)CC1,98.8
Cc1nc(-c2ccc(OCC(C)C)c(C#N)c2)sc1C(=O)O,99.6
CCCCCCCCCCCCCCCCCCCCCCO,95.4
CCOC(=O)O[C@]1(C(=O)OCCl)CC[C@H]2[C@@H]3CCC4=CC(=O)C=C[C@]4(C)[C@H]3[C@@H](O)C[C@@]21C,110
CC(=O)/N=c1/sc(S(N)(=O)=O)nn1C,105
OC[C@@H](O)[C@@H](O)[C@H](O)[C@@H](O)CO,85.3
CC(=O)OCC(=O)[C@@]1(O)CC[C@H]2[C@@H]3CCC4=CC(=O)CC[C@]4(C)[C@H]3C(=O)C[C@@]21C,133
CN(C)[C@@H]1C(O)=C(C(N)=O)C(=O)[C@@]2(O)C(O)=C3C(=O)c4c(O)cccc4[C@@](C)(O)[C@H]3C[C@@H]12,81.8

# Sample 2
# Cell line: mouse MPNST tumor cells
# Method: high-content nuclear imaging
# Refers to: cell number
# Concentration: 10 µM
# Time: 12 h
# Setting: mean of 2 replicates
# Relative to: plate mean
# Direction: higher = more cells
Structure (SMILES),nuclei count
COC[C@@H](NC(C)=O)C(=O)NCc1ccccc1,-0.598 z-score
O=c1cccc2n1CC1CC2CN(CCN2CC3CC(C2)c2cccc(=O)n2C3)C1,-0.47 z-score
Cc1sc2c(c1C)C(c1ccc(Cl)cc1)=NC(CC(N)=O)c1nnc(C)n1-2 (centres unmarked),-2.54 z-score
CC(N)Cc1c[nH]c2ccc(O)cc12 (centres unmarked),-0.358 z-score
COc1ccccc1CN[C@H]1C2CCN(CC2)[C@H]1C(c1ccccc1)c1ccccc1,1.8 z-score
COc1ccc(Cc2nccc3cc(OC)c(OC)cc23)cc1OC,0.116 z-score
CC(C)(C)NCC(O)c1cc(Cl)c(N)c(Cl)c1 (centres unmarked),0.505 z-score

# Sample 3
# SMILES: N/C(=N\[N+](=O)[O-])N/N=C\c1ccc(-c2cccc([N+](=O)[O-])c2)o1
# Observed: enzyme activity
# Action: inhibitor
# Concentration: 0.5 µM
# Relative to: control
target,remaining activity
"G protein-coupled receptor kinase 3 (GRK3, Homo sapiens, UniProt P35626)",102%
"TGF-beta receptor type-2 (TGFBR2, Homo sapiens, UniProt P37173)",123%
"Serine/threonine-protein kinase Chk2 (CHEK2, Homo sapiens, UniProt O96017)",104%
"Serine/threonine-protein kinase STK11 (STK11, Homo sapiens, UniProt Q15831)",98.7%
"STE20/SPS1-related proline-alanine-rich protein kinase (STK39, Homo sapiens, UniProt Q9UEW8)",91.8%
"Death-associated protein kinase 2 (DAPK2, Homo sapiens, UniProt Q9UIK4)",80.1%
"cAMP-dependent protein kinase catalytic subunit alpha (PRKACA, Homo sapiens, UniProt P17612)",93.3%
"Cyclin-dependent kinase 5, with p25 (CDK5, Homo sapiens, UniProt Q00535)",96.5%
"Inhibitor of nuclear factor kappa-B kinase subunit beta (IKBKB, Homo sapiens, UniProt O14920)",86%
"Protein kinase C beta type, isoform beta-I (PRKCB, Homo sapiens, UniProt P05771)",88.9%
"TGF-beta receptor type-1 (TGFBR1, Homo sapiens, UniProt P36897)",96.6%
"Cyclin-dependent kinase 4, with cyclin D1 (CDK4, Homo sapiens, UniProt P11802)",96.6%
"Calcium/calmodulin-dependent protein kinase type II subunit delta (CAMK2D, Homo sapiens, UniProt Q13557)",90.1%

# Further values, each from its own experiment
Structure (SMILES),target,assay,setting,endpoint,result
CC(=O)Nc1c(C(C)=O)c(=O)n(C)c2nc(-c3ccc(Cl)cc3Cl)c(-c3ccc(Cl)cc3)cc12,"Serine/threonine-protein kinase PknB (pknB, Mycobacterium tuberculosis, UniProt P9WI81)","cell-free assay, competition with immobilised ligand",1 µM,remaining binding,100%
Cc1nc(Nc2ncc(C(=O)Nc3c(C)cccc3Cl)s2)cc(N2CCN(CCO)CC2)n1,"Leukocyte tyrosine kinase receptor (LTK, Homo sapiens, UniProt P29376)",,1 µM,inhibition,< 50%
CC(C)CC(=O)N1CCc2nc(-c3ccc(Br)cc3)nc(N(C)Cc3ccccc3)c2C1,"Cyclin-dependent kinase 2 homolog (CRK2, Plasmodium falciparum, UniProt P61075)","cell-free assay, competition with immobilised ligand",0.1 µM,remaining binding,100%
O=C(Nc1cccnn1)N1CCC(=Cc2cccc(Oc3ccc(C(F)(F)F)cn3)c2)CC1,"5-hydroxytryptamine receptor 2A (HTR2A, Homo sapiens, UniProt P28223)","binding, radioligand binding",10 µM,inhibition,82.9%
CNC(=O)Nc1ccc2c(c1)CC[C@@]21OC(=O)N(CC(=O)N(Cc2ccc(F)cc2)[C@@H](C)C(F)(F)F)C1=O,"Calcium-dependent protein kinase 1 (CDPK1, Plasmodium falciparum, UniProt P62344)","cell-free assay, competition with immobilised ligand",1 µM,remaining binding,83%

# A few entries again (sample 3):
target,remaining activity
"Death-associated protein kinase 2 (DAPK2, Homo sapiens, UniProt Q9UIK4)",80.1%
"cAMP-dependent protein kinase catalytic subunit alpha (PRKACA, Homo sapiens, UniProt P17612)",93.3%
"Cyclin-dependent kinase 5, with p25 (CDK5, Homo sapiens, UniProt Q00535)",96.5%
"Inhibitor of nuclear factor kappa-B kinase subunit beta (IKBKB, Homo sapiens, UniProt O14920)",86%
"Protein kinase C beta type, isoform beta-I (PRKCB, Homo sapiens, UniProt P05771)",88.9%
